Measured values collected from several papers.
Each numbered part is a random draw from the data of one study; scales do not carry over between parts. Substitutions count along the parent as printed.

Block 1
Target: JUN, bZIP domain (human)
Method: DHFR protein complementation
Matrix: yeast
Setting: single substitutions, most at no-binding floor
Baseline: wild-type JUN-FOS pair
Reading: higher = stronger binding
Quantity: binding fitness
Starting sequence: JUN, bZIP domain (human); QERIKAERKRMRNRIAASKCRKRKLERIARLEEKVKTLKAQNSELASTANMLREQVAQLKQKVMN; partner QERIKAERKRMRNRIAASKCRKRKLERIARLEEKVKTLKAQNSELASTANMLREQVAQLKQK
V56C: -0.716 natural log
I28G: -1.01 natural log
E32V: -0.44 natural log
L52Y: -0.795 natural log
K34D: -0.29 natural log
R30I: -0.311 natural log
S47R: -0.0849 natural log
K39D: -0.569 natural log
E32S: -0.664 natural log
A49G: -0.524 natural log

Block 2
Target: FOXO3, forkhead domain (mouse, UniProt Q9WVH4, residues 31-263)
UniProt Q9WVH4, sequence (31-263, looked up): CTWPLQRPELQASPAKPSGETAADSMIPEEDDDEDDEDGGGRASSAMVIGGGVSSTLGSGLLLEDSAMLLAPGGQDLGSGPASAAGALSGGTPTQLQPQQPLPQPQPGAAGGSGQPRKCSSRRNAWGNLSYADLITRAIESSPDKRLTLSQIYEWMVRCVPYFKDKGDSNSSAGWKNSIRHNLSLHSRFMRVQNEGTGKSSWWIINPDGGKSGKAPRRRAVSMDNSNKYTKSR
Method: protein-binding microarray
Form: hairpin DNA
Matrix: in vitro
Concentration: not given
Setting: whole hairpin DNA, median over replicate spots
Baseline: not given
Reading: higher = stronger binding
Quantity: median fluorescence
GAGGCCAGGCAAACAACGCCTCCTGGCGTTGTTTGCCTGGCCTCACACTC (5mC at 37): 5010 a.u.
GAGGCCACGCAAACAACGCCTCCTGGCGTTGTTTGCGTGGCCTCACACTC (5mC at 8 36): 5150 a.u.
GAGGCCATCGAAACAACGCCTCCTGGCGTTGTTTCGATGGCCTCACACTC (5mC at 9 35): 4040 a.u.
GAGGCCATGCACGCAACGCCTCCTGGCGTTGCGTGCATGGCCTCACACTC (5mC at 32): 4840 a.u.
GAGGCCATGTAGACAACGCCTCCTGGCGTTGTCTACATGGCCTCACACTC (5mC at 33): 4080 a.u.
GAGGCCCGGTAAACAACGCCTCCTGGCGTTGTTTACCGGGCCTCACACTC (5mC at 7): 6450 a.u.
GAGGCCACGTAAACAACGCCTCCTGGCGTTGTTTACGTGGCCTCACACTC: 5720 a.u.
GAGGCCATGCACGCAACGCCTCCTGGCGTTGCGTGCATGGCCTCACACTC (5mC at 12 32): 4850 a.u.
GAGGCCATGCTAACAACGCCTCCTGGCGTTGTTAGCATGGCCTCACACTC: 4190 a.u.
GAGGCCATCGAACCAACGCCTCCTGGCGTTGGTTCGATGGCCTCACACTC: 4540 a.u.
GAGGCCATCCAAACAACGCCTCCTGGCGTTGTTTGGATGGCCTCACACTC (5mC at 9): 4280 a.u.
GAGGCCATGTAAACCACGCCTCCTGGCGTGGTTTACATGGCCTCACACTC (5mC at 15): 4160 a.u.
GAGGCCATGTAAACAGCGCCTCCTGGCGCTGTTTACATGGCCTCACACTC (5mC at 29): 5210 a.u.
GAGGCCATGCAAACAAAGCCTCCTGGCTTTGTTTGCATGGCCTCACACTC: 4420 a.u.

Block 3
Target: CCNA2, cyclin fold, Cln2 fusion (human)
Method: yeast growth competition, sequencing
Matrix: yeast
Setting: strong parent motif
Baseline: not given
Reading: higher = stronger binding
Quantity: normalised enrichment score
Starting sequence: WEE1 docking peptide (human); CTLRQKLIFSPCS
P11A: 1.47
S13A: 0.877
K6A: 0.491
R4A: 0.458
L7A: 0.364
L3A: 3.49

Block 4
Target: Probable WRKY transcription factor 11, DNA-binding domain (WRKY11, Arabidopsis thaliana, UniProt Q9SV15, residues 228-325)
Method: DNA-protein interaction ELISA
Form: double-stranded DNA, one strand shown
Matrix: in vitro, bacterial lysate
Concentration: not given
Setting: whole dsDNA probe, crude lysate protein
Baseline: highest signal in screen
Reading: higher = stronger binding
Quantity: relative absorbance
Construct (chain): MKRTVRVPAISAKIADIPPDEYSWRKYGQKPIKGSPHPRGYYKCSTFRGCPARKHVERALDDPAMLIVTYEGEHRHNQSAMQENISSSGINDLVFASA
AAAAAAATCTCACTCCTGGTCCCCATAAAA: 14.1 % of maximum
AAAAAAACGATACGGTATCTAGAAAA: 14.1 % of maximum
AAAAAATTCTAGCTTTTAACTTTAGCAAAA: 14.4 % of maximum
AAAAAAACTTCTGTCCCTGTTCCCGTAAAA: 13.3 % of maximum
AAAAAATGGAAGGAGAGGGATGAAATAAAA: 13.3 % of maximum
AAAAAATTCAAAATGATCACTACGGGAAAA: 14.1 % of maximum
AAAAAAAACGTCTGGCGGGGTTGAGAAAAA: 16.4 % of maximum
AAAAAAGCCTTTACCCTTGTTCCTCTAAAA: 16.4 % of maximum
AAAAAAGCTTTCAACATCTGCGTCCAAAAA: 11.2 % of maximum
AAAAAACTGACCGTCAGCGCCCACGCAAAA: 33.1 % of maximum

Block 5
Target: Phosphate system positive regulatory protein PHO4, full length, GST-tagged (PHO4, Saccharomyces cerevisiae, UniProt P07270, residues 1-312)
Method: competition protein-binding microarray
Form: double-stranded DNA, one strand shown
Matrix: in vitro
Concentration: 2 µM
Setting: whole 60-bp probe, lowest competitor level
With: Cbf1 competitor, 0.05 µM
Reading: higher = stronger binding
Quantity: fluorescence intensity
Shared flanks, not repeated: … GTCTTGATTCGCTTGACGCTGCTG
Residues (chain): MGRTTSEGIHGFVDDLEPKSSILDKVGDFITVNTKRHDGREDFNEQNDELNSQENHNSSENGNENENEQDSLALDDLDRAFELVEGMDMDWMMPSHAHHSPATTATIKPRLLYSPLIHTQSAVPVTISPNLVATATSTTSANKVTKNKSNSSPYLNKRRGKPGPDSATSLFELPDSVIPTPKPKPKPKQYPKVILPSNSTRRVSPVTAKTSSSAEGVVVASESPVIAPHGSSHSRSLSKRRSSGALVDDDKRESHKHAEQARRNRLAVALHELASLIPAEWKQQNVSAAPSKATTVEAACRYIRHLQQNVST
AAGGACATACACAACCACAGACAAGGTCATATCGCG: 4900 a.u.
TCTGTATTCCCCAGAGTTGTGACGAATAACTGGTGA: 3720 a.u.
TCGCGAACCCCGTCAACCGTGATGGACGAGATATGA: 3880 a.u.
TCTTCCAGCCTGGGTCCCGTGCGGAAGGGCGGCGGA: 6850 a.u.
CGTCCTAGCGATTGACGCGTGGGTGCCATGAGGAAG: 10600 a.u.
GGCCTCAAGGCATTACACGTTACGATTTTCCAACTG: 5640 a.u.
CCATAGGTTCACATCCATGTGCACTGGTGCTGCGTT: 8980 a.u.
TACAGTCGTTGGGCCACCGTGACTCGTATCTGCGTC: 4360 a.u.
CGACGGAACCCAGGACACGTAATGAGGAAGTTTCAT: 4370 a.u.
GGAGACGTCGCCTTTCTCGTGAAGGCTGGCGGGGTA: 2880 a.u.
ATATTTTGGTAGCGCCGCGTGGGTAACAATGCAGTA: 10500 a.u.

Block 6
Target: ABI1, truncated, D143A, DHFR fusion (Arabidopsis thaliana, UniProt P49597)
Method: DHFR PCA, dose-response
Matrix: yeast
Setting: Hill fit, mean, not affinity
With: (+)-ABA, dose series
Reading: lower = more sensitive
Quantity: ABA EC50
Starting sequence: PYL1, truncated, DHFR fusion (Arabidopsis thaliana, UniProt Q8VZS8); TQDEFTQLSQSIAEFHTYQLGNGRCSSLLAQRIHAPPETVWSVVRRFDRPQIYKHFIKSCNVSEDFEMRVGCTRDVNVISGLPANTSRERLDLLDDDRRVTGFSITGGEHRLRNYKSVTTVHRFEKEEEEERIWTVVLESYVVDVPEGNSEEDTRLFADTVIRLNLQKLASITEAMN
V78C: 9.61 µM
E139V: 1.94 µM
K168E: 28.8 µM
T173S: 2.44 µM
E174T: 8.01 µM
T173Q: 192 µM
R163S: 5.3 µM
E131S: 3.25 µM
S150Y: 65.5 µM
S27M: 128 µM
K116R: 2.94 µM
D95M: 24.6 µM
P146R: 509 µM
E67P: 3.65 µM
L28V: 11.6 µM
T39H: 4.62 µM
K168R: 2.53 µM

Block 7
Target: Ras GTPase-activating protein-binding protein 1, RRM domain (G3BP1, Homo sapiens, UniProt Q13283)
UniProt Q13283, sequence (whole entry, looked up): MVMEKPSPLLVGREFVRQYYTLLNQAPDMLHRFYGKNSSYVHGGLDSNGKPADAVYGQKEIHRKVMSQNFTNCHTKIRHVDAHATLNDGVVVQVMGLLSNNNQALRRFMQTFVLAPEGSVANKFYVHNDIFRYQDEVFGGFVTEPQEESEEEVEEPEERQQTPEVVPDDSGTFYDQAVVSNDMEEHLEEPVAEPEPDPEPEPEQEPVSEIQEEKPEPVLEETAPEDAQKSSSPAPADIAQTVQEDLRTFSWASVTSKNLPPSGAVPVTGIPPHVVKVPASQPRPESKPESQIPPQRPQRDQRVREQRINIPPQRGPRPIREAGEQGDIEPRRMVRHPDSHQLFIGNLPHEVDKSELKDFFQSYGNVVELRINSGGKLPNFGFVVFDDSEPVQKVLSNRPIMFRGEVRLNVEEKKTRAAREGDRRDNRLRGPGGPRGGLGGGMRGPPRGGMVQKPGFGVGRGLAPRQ
Method: RNA Bind-n-Seq
Form: RNA
Matrix: in vitro
Concentration: 1 µM
Setting: whole 134-nt RNA, ends assumed
With: 150 mM KCl
Baseline: input library
Reading: higher = stronger binding
Quantity: log2 enrichment
Shared flanks, not repeated: GGGAGUUCUACAGUCCGACGAUC … UGGAAUUCUCGGGUGUCAAGG
UCCUGUGCUACACAUCGUAUGUACCGAAUCAAAUUUUUUUAAACCCCCAAACCCCCAAAAAAGUAUUAUGUUACGCCGUUCGGAUCUGCA: -1.17
GUCCUGUGCUACACAUCGUAUGUACCGAAUCGGAAAAAAGGAAAAAAGGGAAAAAAGGAAAGUAUUAUGUUACGCCGUUCGGAUCUGCAC: 0.0908
ACCAUGCAGGUGGGCAUCUUUGGGAAGUGGGGCAAGGGGGGGAUAGGGAGGGGGGUAACACAAAGGGAACAGGUGGUCCCAGGUCGUUUC: -0.464
CCUCAAGUCCUGUGCUACACAUCGUAUGUACCGAAUCGGCGGGGCGGCGGGGAAAGUAUUAUGUUACGCCGUUCGGAUCUGCACUUCCAG: -0.439
CCUGUGCUACACAUCGUAUGUACCGAAUCAAACCCCCCCAAACCCCCCCAAACCCCCAAAAAAGUAUUAUGUUACGCCGUUCGGAUCUGC: -0.221
UCCUGUGCUACACAUCGUAUGUACCGAAUCGGGAAAAAGGGGAAAAAGGGGAAAAAGGGAAAGUAUUAUGUUACGCCGUUCGGAUCUGCA: 0.0741
GUCCUGUGCUACACAUCGUAUGUACCGAAUCGGGGAGGGGAAAAAGGGGUUUUUGGGGAAAGUAUUAUGUUACGCCGUUCGGAUCUGCAC: 1.03
ACCAUGCAGGUGUGCAUCUUUGGGAAGUGGGGCAAGGGGGGGAUAGGGAGGGGGGUAACACUUUGGGAACAGGUGGUCCCAGGUCGUUUC: -0.552
CCUCAAGUCCUGUGCUACACAUCGUAUGUACCGAAUCGGCGGGCGGGCGGGGAAAGUAUUAUGUUACGCCGUUCGGAUCUGCACUUCCAG: -0.0417

Block 8
Target: Histone acetyltransferase KAT6A, winged helix 1, GST fusion (KAT6A, Homo sapiens, UniProt Q92794, residues 1-85)
Method: protein binding microarray
Form: double-stranded DNA, one strand shown
Matrix: in vitro
Concentration: not given
Setting: 8-mer, flanks averaged, mean of 2 arrays, mostly near background
Baseline: not given
Reading: higher = stronger binding
Quantity: E-score
Construct (chain): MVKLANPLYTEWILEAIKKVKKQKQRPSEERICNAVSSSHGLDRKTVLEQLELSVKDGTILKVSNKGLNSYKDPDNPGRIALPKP
CGCAGTCA: 0.111
TGGACTAA: -0.101
CTGAAGCC: 0.0673
ACAACGCT: 0.00857
ACTTATTG: -0.182
ACTATCCT: -0.176
GAAAATAA: -0.0748
ACCCCCAG: -0.152
ATCAATAA: -0.198
ATAAGCTC: -0.124
CTATATAC: -0.0166
CCTCCCTC: -0.141
AATCCTTC: -0.135
GCCAGATA: -0.174
AAAACTAT: -0.0303
ATGTTCCG: 0.152
GAAAGCAA: -0.107
CGGTGGGC: 0.156
AAGCAAAT: -0.312

Block 9
Target: Myc proto-oncogene protein, bHLH-zipper, MAX partner unstated (MYC, Homo sapiens, UniProt P01106, residues 368-449)
UniProt P01106, sequence (368-449, looked up): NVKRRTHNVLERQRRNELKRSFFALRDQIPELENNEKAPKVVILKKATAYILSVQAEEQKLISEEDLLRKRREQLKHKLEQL
Method: protein-binding microarray
Form: double-stranded DNA, one strand shown
Matrix: in vitro
Concentration: not given
Setting: k-mer, scored over probes, only values ≥0.25
Reading: higher = stronger binding
Quantity: E-score
ACCACACC: 0.292
ATCACATG: 0.436
GGCCACAC: 0.296
AGGAACGC: 0.25
TCACATGA: 0.287
ACGTGGCT: 0.46
GCGTGGAA: 0.408
ATGCGTGC: 0.421
ATGTGCGA: 0.347
CACCTGTC: 0.279
GTGCGCTA: 0.251
CATACATG: 0.268
ACGGCCAC: 0.264
CAGGTGGG: 0.348
ATCACGAG: 0.329
CCACGATA: 0.289
AGCATATG: 0.309
GGGTGGGA: 0.273

Excerpt of the above (block 4):
AAAAAAACGATACGGTATCTAGAAAA: 14.1 % of maximum
AAAAAATTCTAGCTTTTAACTTTAGCAAAA: 14.4 % of maximum
AAAAAAACTTCTGTCCCTGTTCCCGTAAAA: 13.3 % of maximum
AAAAAATGGAAGGAGAGGGATGAAATAAAA: 13.3 % of maximum
AAAAAAGCCTTTACCCTTGTTCCTCTAAAA: 16.4 % of maximum
AAAAAAAACGTCTGGCGGGGTTGAGAAAAA: 16.4 % of maximum
AAAAAAATCTCACTCCTGGTCCCCATAAAA: 14.1 % of maximum
AAAAAACTGACCGTCAGCGCCCACGCAAAA: 33.1 % of maximum
AAAAAATTCAAAATGATCACTACGGGAAAA: 14.1 % of maximum
AAAAAAGCTTTCAACATCTGCGTCCAAAAA: 11.2 % of maximum
